Assay results collected from several papers.
Each numbered part is a random draw from the data of one study; scales do not carry over between parts. Positions count from the first letter of the parent shown.

Set 1 — target: CCND3, cyclin fold, Cln2 fusion (human); technique: yeast growth competition, sequencing; matrix: yeast; setting: weak parent motif; relative to: not given; reading: higher = stronger binding
Parent: RB1 docking peptide (human); PKPLKKLRFDIEG; partner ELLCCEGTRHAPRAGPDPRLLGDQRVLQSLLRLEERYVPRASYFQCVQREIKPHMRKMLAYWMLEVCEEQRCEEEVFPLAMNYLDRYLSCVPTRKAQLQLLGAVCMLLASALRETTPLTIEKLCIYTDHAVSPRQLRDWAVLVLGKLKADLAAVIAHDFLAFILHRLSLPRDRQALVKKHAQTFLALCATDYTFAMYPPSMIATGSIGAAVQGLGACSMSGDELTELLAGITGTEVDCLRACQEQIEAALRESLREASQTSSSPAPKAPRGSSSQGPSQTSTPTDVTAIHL
| Substitution | normalised enrichment score |
| --- | --- |
| I11R | -0.0685 |
| G13H | 0.127 |
| G13R | 0.225 |
| K2A | 0.159 |
| K6Y | 0.0709 |
| F9M | 0.104 |
| I11A | 0.163 |
| K6W | 0.114 |
| K5A | 0.0996 |
| L4Y | 0.214 |
| E12Y | 0.144 |
| K5M | 0.0879 |
| G13V | 0.105 |
| P1R | 0.17 |
| P3A | 0.178 |
| D10V | 0.0971 |
| F9L | 0.0845 |
| L7K | 0.209 |
| K5P | 0.115 |
| R8D | 0.142 |
| E12D | 0.104 |
| I11H | 0.147 |
| E12R | 0.0813 |
| F9N | 0.22 |
| E12H | 0.0282 |

Set 2 — technique: RNA Bind-n-Seq; form: RNA; matrix: in vitro; concentration: 20 nM; setting: 6-mer, flanks averaged, single round; added: 150 mM LiCl; relative to: input library; reading: higher = stronger binding
Target: TAR DNA-binding protein 43, full length, His tag (TARDBP, Homo sapiens, UniProt Q13148, residues 1-414)
| Oligonucleotide | 6-mer enrichment (R) |
| --- | --- |
| UUACGU | 0.989 |
| GAGGCU | 0.975 |
| CUCUUC | 0.887 |
| UAUCUG | 0.898 |
| UCUAUC | 0.875 |
| GUUUAG | 1.15 |
| GGAAGG | 1.18 |
| GACCGG | 0.949 |
| UGUCUC | 0.936 |
| UGCCUG | 1 |
| UUCUAA | 0.91 |
| UCUACU | 0.871 |
| GUCACC | 0.921 |
| AAUCCA | 0.82 |
| ACCGAC | 0.804 |
| UCUACG | 0.819 |
| AUGCUA | 0.909 |
| UCAUAA | 0.875 |
| UCCGGU | 0.903 |
| AGCGCU | 0.893 |

Set 3 — technique: protein-binding microarray; form: double-stranded DNA, one strand shown; matrix: in vitro; concentration: 2200 nM top; setting: 60-bp whole probe; added: salmon DNA 0.4 mg/ml; relative to: random background probes; reading: higher = stronger binding; shared flanks, not repeated: GCCTAGCAC … GTCTTGATTCGCTTGACGCTGCTG
Target: Interferon regulatory factor 7, full length, phosphomimetic (IRF7, Homo sapiens, UniProt Q92985, residues 1-503, S471D/S472D/S475D/S476D/S477D/S483D/S484D/S487D)
Target sequence (chain): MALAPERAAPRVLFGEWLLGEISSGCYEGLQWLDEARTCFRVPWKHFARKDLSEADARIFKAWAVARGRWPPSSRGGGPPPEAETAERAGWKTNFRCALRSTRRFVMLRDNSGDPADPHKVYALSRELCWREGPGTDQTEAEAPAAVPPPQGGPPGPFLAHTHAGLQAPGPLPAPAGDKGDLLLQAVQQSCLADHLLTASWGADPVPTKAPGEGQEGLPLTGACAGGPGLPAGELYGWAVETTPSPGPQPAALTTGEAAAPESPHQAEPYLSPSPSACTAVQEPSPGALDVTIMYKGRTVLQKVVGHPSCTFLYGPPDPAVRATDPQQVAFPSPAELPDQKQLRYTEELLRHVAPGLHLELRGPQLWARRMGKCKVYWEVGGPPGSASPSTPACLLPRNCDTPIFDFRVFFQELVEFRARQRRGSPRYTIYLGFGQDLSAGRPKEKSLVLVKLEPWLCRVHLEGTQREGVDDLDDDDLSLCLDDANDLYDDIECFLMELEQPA
| Oligonucleotide | fitted relative affinity [z-score] |
| --- | --- |
| GACGAACTGACACTGGAGACGTGCTAG | -0.105 |
| TTGAGTTTTCCTTCATGTGCGTGCTAG | 1.98 |
| TCATATATATGTGTATAACTGTGCTAG | 0.877 |
| TAAGGTCTCGGTATCGGTTAGTGCTAG | 0.816 |
| TTTTTTTTCTAACTAAAAATGTGCTAG | 1.18 |
| TTAAATTTTAATAACACAGAGTGCTAG | -1.06 |
| TCACAGTTGAGTTCTGTTACTGTGCTA | 0.5 |
| GTGACAGTTTTATTTTAGTTGGTGCTA | 1.04 |
| TTAGATTTCAGTATCGAATAGTGCTAG | 0.451 |
| GACGGTATCGGGTTTCGGGAAGTGCTA | 0.892 |
| CTGTTAAAGAATTAAGAAGGGTGCTAG | -1.24 |
| TCACCTTTCCTTTGCCTACTGTGCTAG | 3.35 |
| GACGAACTGGGGTATCGAGACGTGCTA | 0.203 |
| ACCTAATTCACTATTACCAAGTGCTAG | 1.17 |
| ATAACTTTTTTTTTTCCCTGGTGCTAG | 1.63 |
| TGAAAATTAGTGTTTGCCCTAGTGCTA | -0.336 |
| TTAGATATCGGGTTTCGATGAGTGCTA | 0.749 |
| ATAGATTTCAGACTGGATTAGTGCTAG | 0.0493 |
| TTTTTGGATGCTGGAAAAATGTGCTAG | 0.671 |

Set 4 — technique: RNA Bind-n-Seq; form: RNA; matrix: in vitro; concentration: 365 nM; relative to: no-protein control; reading: higher = stronger binding
Target: RNA binding protein fox-1 homolog 2, RRM domain, GST-SBP tag (RBFOX2, Homo sapiens, UniProt O43251-10, residues 100-194)
Setting: natural RNA segment, single round, ends assumed
Shared flanks, not repeated: GGGAGUUCUACAGUCCGACGAUC … UGGAAUUCUCGGGUGCCAA
Target sequence (chain): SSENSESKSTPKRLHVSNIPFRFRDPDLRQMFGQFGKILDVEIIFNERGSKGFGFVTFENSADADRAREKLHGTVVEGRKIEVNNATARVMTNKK
| Oligonucleotide | RBNS enrichment (R) |
| --- | --- |
| UUGCCCUUUCUUCCCGAGGGCUGUGGGCCAGCGCUCCGAAGGAAGCAAUCAAGGGGAGAAAACACAGUGUAAGCCGCUGUCAAUAAAUGACACCCAGACCUUCCAGCUGC | 0.408 |
| AACAGCAAGCAGAACACCGUGCAUGCUGGCCACAGCAGUGGAGCCAAGUCUCUGCUGGUUACGGAGCUAUACGGUACUGCAGGAGUUCUACAUACCUGCUGCGCAGAGAC | 1.85 |
| UCUCCUGCUCUGAGUUCACUCUGUGCCUCCAUUUGCAUUUUGCUUAGUUGAUCCGGUUUCUCUGUUCUGACAAGGUGGAAAACUGGUAAGCAUCUCAGAUCUGCAGUAUU | 0.461 |
| AAAUACAAUUCCAUUAACUACAUAGAAACUAUUAAGAAAGAGAGAAUCAAAAAUAUUUUUGUGAGGGAGUCGGUCCCAGGCAGUUUGAUGCUCUGUGGAAGGAGGCGGGA | 0.497 |
| UCGUGUCCAGAGAGGGACAGGGUCUCAUUGUCACCCUCCAAAUACAUAAAGGCUGGUUCAGAAUGUUCUACUCUGUCUCUUUGUUUGUGGUCUAGUUGUCCCUGUUGGUU | 0.897 |
| UGAGGGGACCUCUCACCUGGUCACAUGAGGUUGAGGAGGGCCCAGUGUCCUGGCAGAUGAUCAGUACAGUGUCCCCCUCAAGUCACACUUUCCUGCCUUACACAGAGCAG | 0.265 |
| GUUGUUCUAUUUUGUACAGACAAGUUGGAAAAACAACAGCGACAAAAAAGUCAAGAAACUUUGUAAAAUAUCGUGUGUGUGAUUCCUUGUAAAAUAUUUUCAAAUGGUUU | 0.979 |
| UCCUGGGGUUGGUAUGUAGGAGGUCUAUCCUGCAGAAUAAGUUGAUACAUUAGUACCUGAUUUCAUAUCUUACAUAUUUAUUUGAGCUGAACAUUAGUUUGUAGUGUAAC | 0.519 |
